Assay results from different studies.
Parts stem from different laboratories: compare values within a part only.

Sample 1
Target: Centromere-binding protein 1, full length, His-tagged (CBF1, Saccharomyces cerevisiae, UniProt P17106, residues 1-351)
Chain of UniProt P17106 (whole entry, looked up): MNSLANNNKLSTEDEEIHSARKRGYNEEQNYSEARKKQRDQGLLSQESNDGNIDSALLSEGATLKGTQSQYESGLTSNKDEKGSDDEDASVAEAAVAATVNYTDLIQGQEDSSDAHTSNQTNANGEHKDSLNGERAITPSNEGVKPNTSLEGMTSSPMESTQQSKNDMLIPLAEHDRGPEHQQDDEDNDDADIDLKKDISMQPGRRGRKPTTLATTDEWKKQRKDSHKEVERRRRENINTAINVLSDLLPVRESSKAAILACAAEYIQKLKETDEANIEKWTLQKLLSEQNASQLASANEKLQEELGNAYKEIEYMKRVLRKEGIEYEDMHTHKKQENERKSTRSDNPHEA
Method: competition protein-binding microarray
Form: double-stranded DNA, one strand shown
Sample: in vitro
Concentration: 2 µM
Setting: whole 60-bp probe, lowest competitor level
Added: Pho4 competitor, 0.05 µM
Reading: higher = stronger binding
For `TAGCTAAAAACGAGTCACGTGATGGATATTCGAAAGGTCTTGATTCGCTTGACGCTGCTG`, the fluorescence intensity was 27300 a.u.
`GCCAGAAGTTCCTGTCACACTCTGCAAATTATCCCGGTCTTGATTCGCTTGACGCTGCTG` has a fluorescence intensity of 95.3 a.u.
With `AATTGTCTAAAATTCGTCGTGCTTTCAGAGACTTGTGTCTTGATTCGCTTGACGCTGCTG` the fluorescence intensity was 75.4 a.u.
For `TTGGCACTTCGCACAGGCGTGACTCGTTTCTGTGAAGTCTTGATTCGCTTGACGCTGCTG`, the fluorescence intensity was 235 a.u.
The fluorescence intensity of `CTAATACCCGGAAGTCGCGTGATGGTTTTTTTTTTCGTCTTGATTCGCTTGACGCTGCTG` is reported as 462 a.u.
With `ATAGGTTCAAACTTCGGCGTGCTAAAAGTATATACCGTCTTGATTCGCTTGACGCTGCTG` the fluorescence intensity was 87.6 a.u.
The fluorescence intensity of `ATGAAAAAGATTCACCACGTTTCTTTTGTTTCGATAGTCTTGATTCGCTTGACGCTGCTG` is reported as 125 a.u.

Sample 2
Target: Sal-like protein 4, full length isoform B (SALL4, Homo sapiens, UniProt Q9UJQ4-2, residues 1-616)
Method: universal PBM
Form: double-stranded DNA, one strand shown
Sample: in vitro
Concentration: not given
Setting: 8-mer, flanks averaged, mean of replicates
Reading: higher = stronger binding
Construct (chain): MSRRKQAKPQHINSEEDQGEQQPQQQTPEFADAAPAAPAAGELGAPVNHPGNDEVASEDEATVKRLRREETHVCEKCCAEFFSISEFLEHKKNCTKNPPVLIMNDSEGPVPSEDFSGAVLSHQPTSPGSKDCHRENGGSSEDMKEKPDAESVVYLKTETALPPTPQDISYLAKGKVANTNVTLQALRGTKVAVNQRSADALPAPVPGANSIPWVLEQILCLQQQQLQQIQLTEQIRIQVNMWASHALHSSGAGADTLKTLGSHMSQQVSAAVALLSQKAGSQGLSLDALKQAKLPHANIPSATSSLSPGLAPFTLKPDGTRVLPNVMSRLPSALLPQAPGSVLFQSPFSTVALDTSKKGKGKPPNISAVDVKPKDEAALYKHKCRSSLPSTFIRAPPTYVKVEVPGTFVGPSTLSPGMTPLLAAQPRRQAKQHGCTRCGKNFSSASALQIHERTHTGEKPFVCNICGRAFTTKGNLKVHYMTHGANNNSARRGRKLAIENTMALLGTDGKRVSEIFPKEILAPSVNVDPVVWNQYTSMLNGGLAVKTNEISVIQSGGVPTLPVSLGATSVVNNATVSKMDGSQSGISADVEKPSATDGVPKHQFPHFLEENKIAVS
With `ACACGCTG` the E-score was -0.0408.
`CCCAGAAA` gave an E-score of -0.128.
`CGACGGAA` has an E-score of -0.0752.
`TGCCGGAA` gave an E-score of -0.17.
`CTTCCTAA` has an E-score of 0.208.
`TGCCGAAA` has an E-score of -0.154.

Sample 3
Target: Interferon regulatory factor 5, full length, phosphomimetic (IRF5, Homo sapiens, UniProt Q13568-2, residues 1-514, S451D/S453D/S456D/S462D)
Method: protein-binding microarray
Form: double-stranded DNA, one strand shown
Sample: in vitro
Concentration: 940 nM top
Setting: 60-bp whole probe
Added: salmon DNA 0.4 mg/ml
Reference: random background probes
Reading: higher = stronger binding
Shared flanks, not repeated: GCCTAGCAC … GTGCTAGGTCTTGATTCGCTTGACGCTGCTG
`TTAGATTTCAGTATCGATTT` — result for “fitted relative affinity”: 5.32 z-score.
`GACGATCTAAGACTGGAGAC` — result for “fitted relative affinity”: -0.529 z-score.
Under “fitted relative affinity”, `GACGGTTTCCTTTTCCTAAC` is recorded as 2.02 z-score.
`GACGATATCAGTTTCGAGAT`: “fitted relative affinity” 3.71 z-score.
`TCAGTTTTCTCTATTGCACT`: “fitted relative affinity” 1.93 z-score.

Further values, each from its own experiment
The fold induction of `PhoQ, residues 284 288 289 292 302 303 SVHLDV` is reported as 15.8 (PhoP, residues 12 14 15 18 19 SQCLL (Escherichia coli, UniProt P23836); Sort-seq, item: YFP reporter; E. coli; PhoQ-PhoP variant library, added: 10 µM Mg2+; reference: high Mg2+ state, higher = stronger signaling).

For quick reference, copied from above (sample 2):
`CGACGGAA` has an E-score of -0.0752.
`TGCCGGAA` gave an E-score of -0.17.
`CTTCCTAA` has an E-score of 0.208.
